Measured values gathered from unrelated publications.
Every numbered part comes from another study and shows a few of its results, in no order. Several values in a cell are separate wells, animals, samples, runs or records.
Chain of UniProt P31749 (whole entry, looked up): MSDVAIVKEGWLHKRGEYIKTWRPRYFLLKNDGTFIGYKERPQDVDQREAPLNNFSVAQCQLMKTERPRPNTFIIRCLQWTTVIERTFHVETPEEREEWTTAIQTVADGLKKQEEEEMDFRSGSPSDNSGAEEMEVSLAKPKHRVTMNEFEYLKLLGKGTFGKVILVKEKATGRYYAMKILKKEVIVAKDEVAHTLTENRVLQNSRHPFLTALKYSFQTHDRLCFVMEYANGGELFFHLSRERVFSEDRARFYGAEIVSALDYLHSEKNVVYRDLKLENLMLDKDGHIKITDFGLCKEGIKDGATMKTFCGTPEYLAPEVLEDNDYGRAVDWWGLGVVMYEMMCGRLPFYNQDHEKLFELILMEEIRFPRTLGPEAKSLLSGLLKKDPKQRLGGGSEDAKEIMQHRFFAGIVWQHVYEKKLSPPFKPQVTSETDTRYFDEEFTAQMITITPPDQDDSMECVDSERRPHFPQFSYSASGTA
Chain of UniProt Q9UQB9 (whole entry, looked up): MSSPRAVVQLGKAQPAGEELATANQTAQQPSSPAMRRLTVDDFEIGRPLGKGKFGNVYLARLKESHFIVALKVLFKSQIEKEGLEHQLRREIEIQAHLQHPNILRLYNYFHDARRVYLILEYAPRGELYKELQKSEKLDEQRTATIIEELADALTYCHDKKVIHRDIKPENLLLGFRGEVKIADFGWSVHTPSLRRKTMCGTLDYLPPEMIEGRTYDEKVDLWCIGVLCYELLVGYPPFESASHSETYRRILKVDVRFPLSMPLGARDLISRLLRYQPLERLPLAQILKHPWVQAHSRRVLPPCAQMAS

Block 1 — concentration: 0.1 µM
Compound: Cn1nc(C(=O)NCc2ccc(C(=O)O)cc2)cc1-c1ccc2[nH]ccc2c1
| target | test | remaining binding |
| --- | --- | --- |
| Protein kinase C theta type (PRKCQ, Homo sapiens, UniProt Q04759) | cell-free assay, competition with immobilised ligand | 99% |
| 5'-AMP-activated protein kinase catalytic subunit alpha-2 (PRKAA2, Homo sapiens, UniProt P54646) | cell-free assay, competition with immobilised ligand | 91% |
| Citron Rho-interacting kinase (CIT, Homo sapiens, UniProt O14578) | cell-free assay, competition with immobilised ligand | 59% |
| Tyrosine-protein kinase Fer (FER, Homo sapiens, UniProt P16591) | cell-free assay, competition with immobilised ligand | 93% |
| Rhodopsin kinase GRK1 (GRK1, Homo sapiens, UniProt Q15835) | cell-free assay, competition with immobilised ligand | 100% |
| RAC-alpha serine/threonine-protein kinase (AKT1, Homo sapiens, UniProt P31749) | cell-free assay, competition with immobilised ligand | 100% |
| Aurora kinase C (AURKC, Homo sapiens, UniProt Q9UQB9) | cell-free assay, competition with immobilised ligand | 76% |
| Dual specificity protein kinase CLK2 (CLK2, Homo sapiens, UniProt P49760) | cell-free assay, competition with immobilised ligand | 100% |
| Phosphorylase b kinase gamma catalytic chain, liver/testis isoform (PHKG2, Homo sapiens, UniProt P15735) | cell-free assay, competition with immobilised ligand | 86% |
| Rho-associated protein kinase 2 (ROCK2, Homo sapiens, UniProt O75116) | cell-free assay, competition with immobilised ligand | 82% |
| Serine/threonine-protein kinase 16 (STK16, Homo sapiens, UniProt O75716) | cell-free assay, competition with immobilised ligand | 86% |
| Tyrosine-protein kinase JAK1, JH2 (JAK1, Homo sapiens, UniProt P23458) | cell-free assay, competition with immobilised ligand | 84% |
| Serine/threonine-protein kinase ICK (CILK1, Homo sapiens, UniProt Q9UPZ9) | cell-free assay, competition with immobilised ligand | 72% |
| Calcium/calmodulin-dependent protein kinase type 1B (PNCK, Homo sapiens, UniProt Q6P2M8) | cell-free assay, competition with immobilised ligand | 100% |
| Phosphatidylinositol 4,5-bisphosphate 3-kinase catalytic subunit delta isoform (PIK3CD, Homo sapiens, UniProt O00329) | cell-free assay, competition with immobilised ligand | 97% |
| Tyrosine-protein kinase ABL1, phosphorylated (ABL1, Homo sapiens, UniProt P00519, F317I) | binding | 100% |
| Discoidin domain-containing receptor 2 (DDR2, Homo sapiens, UniProt Q16832) | cell-free assay, competition with immobilised ligand | 75% |
| G protein-coupled receptor kinase 3 (GRK3, Homo sapiens, UniProt P35626) | cell-free assay, competition with immobilised ligand | 81% |
| SRSF protein kinase 3 (SRPK3, Homo sapiens, UniProt Q9UPE1) | cell-free assay, competition with immobilised ligand | 100% |
| Maternal embryonic leucine zipper kinase (MELK, Homo sapiens, UniProt Q14680) | cell-free assay, competition with immobilised ligand | 86% |
| Serine/threonine-protein kinase B-raf (BRAF, Homo sapiens, UniProt P15056, V600E) | cell-free assay, competition with immobilised ligand | 89% |
| Focal adhesion kinase 1 (PTK2, Homo sapiens, UniProt Q05397) | cell-free assay, competition with immobilised ligand | 85% |

Block 2 — observed: enzyme activity; mode: inhibitor; concentration: 10 µM
Target: Calcium/calmodulin-dependent protein kinase type II subunit alpha (CAMK2A, Homo sapiens, UniProt Q9UQM7)
Chain of UniProt Q9UQM7 (whole entry, looked up): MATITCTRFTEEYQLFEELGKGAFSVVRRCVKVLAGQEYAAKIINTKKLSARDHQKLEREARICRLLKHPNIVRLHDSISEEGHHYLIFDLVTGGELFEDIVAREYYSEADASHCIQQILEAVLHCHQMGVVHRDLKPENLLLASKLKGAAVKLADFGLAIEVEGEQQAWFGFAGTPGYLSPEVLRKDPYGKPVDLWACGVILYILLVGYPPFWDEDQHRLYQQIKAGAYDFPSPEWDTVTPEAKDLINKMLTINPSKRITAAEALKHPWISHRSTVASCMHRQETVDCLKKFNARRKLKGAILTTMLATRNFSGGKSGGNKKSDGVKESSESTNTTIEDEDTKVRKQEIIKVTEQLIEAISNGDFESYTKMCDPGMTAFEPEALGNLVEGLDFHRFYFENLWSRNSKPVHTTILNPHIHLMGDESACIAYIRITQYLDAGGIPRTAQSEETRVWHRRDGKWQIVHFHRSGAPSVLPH
| Structure (SMILES) | inhibition |
| --- | --- |
| CCOC(=O)COc1ccc2c(=O)cc(-c3ccccc3)oc2c1 | -8% |
| NC(=O)c1nc(F)cnc1O | 5% |
| CC(=O)NCCc1cnc[nH]1 | -9% |
| COc1c(O)cc(O)c2c(=O)cc(-c3ccccc3)oc12 | -42% |
| CC(C)(O)CC[C@@H](O)[C@](C)(O)[C@H]1CC[C@@]2(O)C3=CC(=O)[C@@H]4C[C@@H](O)[C@@H](O)C[C@]4(C)[C@H]3CC[C@]12C | 18% |
| c1ccc2c(c1)CCCC2C1=NCCN1 (stereo not shown) | -9% |
| CCCOC(=O)c1cc(O)c(O)c(O)c1 | 30% |
| O=C(O)c1cccnc1C(=O)O | -13% |
| COc1cc(C[C@@H](CO[C@@H]2O[C@H](CO)[C@@H](O)[C@H](O)[C@H]2O)[C@H](CO[C@@H]2O[C@H](CO)[C@@H](O)[C@H](O)[C@H]2O)Cc2ccc(O)c(OC)c2)ccc1O | 14% |
| CC(=O)c1cc(O)ccc1O | -15% |
| CC(C)=CCC[C@](C)(O[C@@H]1O[C@H](CO)[C@@H](O)[C@H](O)[C@H]1O)[C@H]1CC[C@]2(C)[C@@H]1[C@H](O)C[C@@H]1[C@@]3(C)CC[C@H](O)C(C)(C)[C@@H]3[C@@H](O[C@@H]3O[C@H](CO)[C@@H](O)[C@H](O)[C@H]3O)C[C@]12C | 12% |
| CCCCCCCC/C=C\CCCCCCCC(=O)O[C@H](CC(=O)[O-])C[N+](C)(C)C | -15% |

Block 3 — observed: enzyme activity; mode: inhibitor; concentration: 77 µM; reference: untreated
Target: DNA polymerase theta, ATPase domain (POLQ, Homo sapiens, UniProt O75417)
Chain of UniProt O75417 (whole entry, unmodified, looked up): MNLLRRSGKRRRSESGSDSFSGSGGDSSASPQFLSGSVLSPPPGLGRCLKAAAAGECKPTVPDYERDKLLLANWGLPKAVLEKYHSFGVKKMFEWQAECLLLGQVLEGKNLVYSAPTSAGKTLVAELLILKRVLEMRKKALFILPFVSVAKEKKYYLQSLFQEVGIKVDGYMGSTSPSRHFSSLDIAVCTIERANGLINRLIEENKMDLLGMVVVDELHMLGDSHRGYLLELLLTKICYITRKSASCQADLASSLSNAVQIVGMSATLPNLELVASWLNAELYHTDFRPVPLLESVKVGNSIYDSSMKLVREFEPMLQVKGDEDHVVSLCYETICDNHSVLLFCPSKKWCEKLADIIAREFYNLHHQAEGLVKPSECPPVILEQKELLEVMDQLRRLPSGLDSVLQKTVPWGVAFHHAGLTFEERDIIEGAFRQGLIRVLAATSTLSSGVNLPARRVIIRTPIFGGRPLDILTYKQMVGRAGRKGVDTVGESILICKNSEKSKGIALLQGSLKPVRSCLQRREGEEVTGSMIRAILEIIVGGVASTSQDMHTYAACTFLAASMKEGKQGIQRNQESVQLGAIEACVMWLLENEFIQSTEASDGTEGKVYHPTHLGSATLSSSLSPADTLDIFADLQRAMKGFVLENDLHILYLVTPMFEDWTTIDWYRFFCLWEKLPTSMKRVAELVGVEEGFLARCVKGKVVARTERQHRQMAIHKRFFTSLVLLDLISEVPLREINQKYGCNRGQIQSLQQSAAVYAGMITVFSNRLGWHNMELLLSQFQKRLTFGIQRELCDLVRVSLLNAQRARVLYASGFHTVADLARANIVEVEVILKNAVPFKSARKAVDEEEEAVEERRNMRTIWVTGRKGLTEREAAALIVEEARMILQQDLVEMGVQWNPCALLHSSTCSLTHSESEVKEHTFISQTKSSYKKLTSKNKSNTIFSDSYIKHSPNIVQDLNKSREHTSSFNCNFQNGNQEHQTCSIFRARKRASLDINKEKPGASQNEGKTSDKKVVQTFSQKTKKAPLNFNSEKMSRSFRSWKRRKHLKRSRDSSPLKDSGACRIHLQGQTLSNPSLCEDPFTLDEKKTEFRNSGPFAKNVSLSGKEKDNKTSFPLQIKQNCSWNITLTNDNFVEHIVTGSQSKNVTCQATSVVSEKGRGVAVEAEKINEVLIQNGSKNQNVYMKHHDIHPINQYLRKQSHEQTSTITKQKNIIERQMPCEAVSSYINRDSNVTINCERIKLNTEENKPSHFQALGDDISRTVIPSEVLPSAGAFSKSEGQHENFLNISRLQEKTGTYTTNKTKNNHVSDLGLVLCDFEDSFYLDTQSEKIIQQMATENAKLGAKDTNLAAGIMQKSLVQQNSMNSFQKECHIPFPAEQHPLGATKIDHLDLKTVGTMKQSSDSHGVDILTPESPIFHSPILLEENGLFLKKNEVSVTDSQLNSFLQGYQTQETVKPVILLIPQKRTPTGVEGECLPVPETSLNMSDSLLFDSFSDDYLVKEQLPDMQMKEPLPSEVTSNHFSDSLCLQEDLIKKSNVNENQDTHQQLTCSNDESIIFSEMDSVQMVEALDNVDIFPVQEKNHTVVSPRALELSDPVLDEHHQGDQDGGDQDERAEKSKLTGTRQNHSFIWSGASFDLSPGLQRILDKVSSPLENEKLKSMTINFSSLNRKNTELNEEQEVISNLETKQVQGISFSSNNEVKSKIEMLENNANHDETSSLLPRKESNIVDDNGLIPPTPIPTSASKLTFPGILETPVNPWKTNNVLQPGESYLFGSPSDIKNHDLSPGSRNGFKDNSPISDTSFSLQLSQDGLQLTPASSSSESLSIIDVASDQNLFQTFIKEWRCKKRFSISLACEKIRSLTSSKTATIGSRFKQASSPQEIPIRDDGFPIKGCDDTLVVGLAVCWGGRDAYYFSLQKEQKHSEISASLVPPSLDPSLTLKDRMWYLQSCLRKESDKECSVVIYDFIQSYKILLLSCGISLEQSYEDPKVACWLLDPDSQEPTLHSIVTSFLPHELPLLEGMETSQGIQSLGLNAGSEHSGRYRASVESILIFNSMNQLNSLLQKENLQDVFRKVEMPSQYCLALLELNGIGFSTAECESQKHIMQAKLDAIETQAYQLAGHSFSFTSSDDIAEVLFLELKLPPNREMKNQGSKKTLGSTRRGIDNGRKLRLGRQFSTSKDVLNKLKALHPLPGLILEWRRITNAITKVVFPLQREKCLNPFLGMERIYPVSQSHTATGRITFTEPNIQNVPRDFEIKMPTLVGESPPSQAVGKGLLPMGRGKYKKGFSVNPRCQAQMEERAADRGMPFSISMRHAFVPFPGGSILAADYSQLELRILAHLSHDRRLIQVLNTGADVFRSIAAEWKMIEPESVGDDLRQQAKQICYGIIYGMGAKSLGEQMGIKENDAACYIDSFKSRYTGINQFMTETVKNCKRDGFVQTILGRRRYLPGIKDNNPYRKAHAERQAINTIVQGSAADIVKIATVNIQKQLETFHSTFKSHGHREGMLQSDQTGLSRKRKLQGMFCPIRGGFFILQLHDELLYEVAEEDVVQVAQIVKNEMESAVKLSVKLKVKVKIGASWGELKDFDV
| SMILES | remaining activity |
| --- | --- |
| Clc1ccccc1CN1CCc2sccc2C1 | 101% |
| Cn1sc(=O)n(Cc2ccccc2)c1=O | 102% |
| O=C1NCCc2[nH]c(-c3ccncc3)cc21 | 84.8% |
| CCN1CCC[C@H]1CNC(=O)c1c(O)c(Cl)cc(Cl)c1OC | 99.7% |
| Cn1c(-c2ccc3c(c2)OCO3)cc(=O)c2ccccc21 | 108% |
| CCOC(=O)c1ccc(C#Cc2ccc3c(c2)C(C)(C)CCS3)nc1 | 99.1% |
| CC(C)(C)c1cc(NC(=O)Nc2ccc(-c3cn4c(n3)sc3cc(OCCN5CCOCC5)ccc34)cc2)no1 | 105% and 101% and 106% and 99.7% |
| c1ccc(CN2CCC3(CCCc4ccccc43)CC2)cc1 | 102% |
| C[C@@H](O[C@H]1OCCN(Cc2nn(P(=O)(O)O)c(=O)[nH]2)[C@H]1c1ccc(F)cc1)c1cc(C(F)(F)F)cc(C(F)(F)F)c1 | 102% |
| O=S(=O)(O)Oc1ccc(C(c2ccc(OS(=O)(=O)O)cc2)c2ccccn2)cc1 | 92.8% |
| CC(C)n1cnc2c(NCCc3ccc(O)cc3)nc(-c3csc4ccccc34)nc21 | 102% |
| c1ccc(-c2ccccn2)nc1 | 101% |
| O=c1[nH]c(=O)n([C@H]2C[C@H](O)[C@@H](CO)O2)cc1Br | 99.6% |
| Cc1cccc(-c2nn3c(c2-c2ccnc4ccc(C(N)=O)cc24)CCC3)n1 | 103% |
| Cc1ccc2c(c1)C(=O)[C@]1(O)CCN(c3ccccc3)C1=N2 | 78.2% |
| COc1ccc(Cc2nccc3cc(OC)c(OC)cc23)cc1OC | 97.9% and 102% |
| Nc1nc(Cl)nc2c1ncn2[C@@H]1O[C@H](CO)[C@@H](O)[C@@H]1F | 94.5% |
| Cc1cccc(Nc2ccncc2S(=O)(=O)NC(=O)NC(C)C)c1 | 94.4% |
| Cc1cc(-n2c(=O)[nH]c(=O)n(C)c2=O)ccc1Oc1ccc(SC(F)(F)F)cc1 | 69.7% |
| O=S(=O)(O)CCSSCCS(=O)(=O)O | 95.5% |

Block 4 — observed: enzyme activity; mode: inhibitor; concentration: 0.5 µM; reference: control
Target: Macrophage colony-stimulating factor 1 receptor (CSF1R, Homo sapiens, UniProt P07333)
Chain of UniProt P07333 (whole entry, looked up): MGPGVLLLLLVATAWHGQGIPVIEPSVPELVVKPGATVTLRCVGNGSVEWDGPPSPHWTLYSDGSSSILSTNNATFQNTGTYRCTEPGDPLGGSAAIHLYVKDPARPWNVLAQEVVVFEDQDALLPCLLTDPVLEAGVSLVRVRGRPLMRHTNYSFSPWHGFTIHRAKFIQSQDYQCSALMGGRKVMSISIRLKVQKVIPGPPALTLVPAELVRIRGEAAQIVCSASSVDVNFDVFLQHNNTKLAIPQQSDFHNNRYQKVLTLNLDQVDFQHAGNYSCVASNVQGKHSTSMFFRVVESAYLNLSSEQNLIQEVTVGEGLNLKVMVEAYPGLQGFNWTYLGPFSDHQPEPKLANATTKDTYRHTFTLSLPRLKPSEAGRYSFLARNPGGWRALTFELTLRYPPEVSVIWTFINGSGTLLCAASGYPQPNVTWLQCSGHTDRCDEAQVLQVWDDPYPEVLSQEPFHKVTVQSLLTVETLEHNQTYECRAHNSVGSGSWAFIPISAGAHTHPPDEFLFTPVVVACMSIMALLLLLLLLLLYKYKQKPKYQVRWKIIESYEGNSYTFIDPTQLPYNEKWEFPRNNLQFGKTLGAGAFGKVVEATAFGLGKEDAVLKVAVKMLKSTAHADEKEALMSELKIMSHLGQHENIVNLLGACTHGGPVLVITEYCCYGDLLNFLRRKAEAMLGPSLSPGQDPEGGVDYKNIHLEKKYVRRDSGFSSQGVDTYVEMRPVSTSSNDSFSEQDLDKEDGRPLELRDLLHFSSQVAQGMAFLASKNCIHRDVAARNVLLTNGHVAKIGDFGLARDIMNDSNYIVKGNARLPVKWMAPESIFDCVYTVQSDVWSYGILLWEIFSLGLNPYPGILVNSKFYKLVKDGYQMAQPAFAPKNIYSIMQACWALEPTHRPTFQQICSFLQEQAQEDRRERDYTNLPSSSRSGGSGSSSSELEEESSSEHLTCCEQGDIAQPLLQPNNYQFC
| Structure (SMILES) | remaining activity [%] |
| --- | --- |
| O=C1C(Cl)=C(N2C(=O)CCC2=O)C(=O)c2ccccc21 | 102 |
| Nc1cccc(-c2cc3c(Oc4cccc(O)c4)ncnc3[nH]2)c1 | 13.6 |
| O=C(NC(NC(=S)Nc1ccc(F)c([N+](=O)[O-])c1)C(Cl)(Cl)Cl)C(c1ccccc1)c1ccccc1 (stereo not shown) | 96.2 |
| c1ccc(-c2cnc(Nc3ccc(OCCN4CCCC4)cc3)s2)cc1 | 38.4 |
| COc1cc2ncnc(Nc3ccc(O)c(Br)c3)c2cc1OC | 95.2 |
| CN([C@@H](Cc1ccc(OS(=O)(=O)c2cccc3cnccc23)cc1)C(=O)N1CCN(c2ccccc2)CC1)S(=O)(=O)c1cccc2cnccc12 | 95.1 |
| Cc1cn(-c2cc(NC(=O)c3ccc(C)c(Nc4nccc(-c5cccnc5)n4)c3)cc(C(F)(F)F)c2)cn1 | 17.5 |
| Cc1cc2ncc(-c3ccccc3)nc2cc1C | 82.1 |
| O=c1cc(-c2cccc3c2Sc2ccccc2S3)oc(N2CCOCC2)c1 | 91.9 |
| O=C(Nc1cccc(Nc2nccc(Nc3cccc(C(F)(F)F)c3)n2)c1)C1CC1 | 63.1 |
| N#C/C(=C\c1ccc(O)c(O)c1)C(=O)NCc1ccccc1 | 100 |
| c1ccc(-c2[nH]ncc2-c2ccnc3ccccc23)nc1 | 95.5 |
| Cn1nc2c3c(cccc31)C(=O)c1ccccc1-2 | 97 |
| C[C@@H]1CCN(C(=O)CC#N)C[C@@H]1N(C)c1ncnc2[nH]ccc12 | 101 |
| CCOc1nc(NC(=O)Cc2cc(OC)ccc2OC)cc(N)c1C#N | 99.2 |
| Cc1nc2cc3nc(-c4cccs4)cnc3cc2n1C | 63.5 |
| CCN(CC)CCNC(=O)c1c(C)[nH]c(/C=C2\C(=O)Nc3ccc(F)cc32)c1C | 7.28 |
| COc1cc2c(cc1OC)-c1[nH]nc(Nc3cccc(F)c3)c1C2 | 20 |
| COc1cc2ncnc(Nc3cccc(Cl)c3)c2cc1OC | 98.2 |
| Ic1cccc(CSc2nnc(-c3ccncc3)o2)c1 | 104 |
| N#Cc1c(NC(=O)c2cccc3ccccc23)sc2c1CCCC2 | 97.2 |
| CN(C)C[C@H]1CCn2c(c(C3=C(c4cn(C)c5ccccc45)C(=O)NC3=O)c3ccccc32)C1 | 98.1 |
| CCN(CC)CCNC(=O)c1c(C)[nH]c(/C=C2\C(=O)Nc3ccc(Cl)cc32)c1C | 7.41 |
| O=C1c2ccccc2-c2n[nH]c3cccc1c23 | 86.7 |
| CCN(CC)C(=O)c1ccc(Nc2nc(OCC3CCCCC3)c3[nH]cnc3n2)cc1 | 5.73 |

Repeated from above (block 2):
| Structure (SMILES) | inhibition |
| --- | --- |
| CCOC(=O)COc1ccc2c(=O)cc(-c3ccccc3)oc2c1 | -8% |
| NC(=O)c1nc(F)cnc1O | 5% |
| CC(=O)NCCc1cnc[nH]1 | -9% |
| COc1c(O)cc(O)c2c(=O)cc(-c3ccccc3)oc12 | -42% |
| CC(C)(O)CC[C@@H](O)[C@](C)(O)[C@H]1CC[C@@]2(O)C3=CC(=O)[C@@H]4C[C@@H](O)[C@@H](O)C[C@]4(C)[C@H]3CC[C@]12C | 18% |
| c1ccc2c(c1)CCCC2C1=NCCN1 (stereo not shown) | -9% |
| CCCOC(=O)c1cc(O)c(O)c(O)c1 | 30% |
| O=C(O)c1cccnc1C(=O)O | -13% |
| COc1cc(C[C@@H](CO[C@@H]2O[C@H](CO)[C@@H](O)[C@H](O)[C@H]2O)[C@H](CO[C@@H]2O[C@H](CO)[C@@H](O)[C@H](O)[C@H]2O)Cc2ccc(O)c(OC)c2)ccc1O | 14% |
| CC(=O)c1cc(O)ccc1O | -15% |
